Results pooled from the literature.
Lines come from different studies, so protocols differ. Several values in a cell are separate wells, animals, samples, runs or records. ± gives the spread as reported.
Sequence of UniProt Q16774 (whole entry, looked up): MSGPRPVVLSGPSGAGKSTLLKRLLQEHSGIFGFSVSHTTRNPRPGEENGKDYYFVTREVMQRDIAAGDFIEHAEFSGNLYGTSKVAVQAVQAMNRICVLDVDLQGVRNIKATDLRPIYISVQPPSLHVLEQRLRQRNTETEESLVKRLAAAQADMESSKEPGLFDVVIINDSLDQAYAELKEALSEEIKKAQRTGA
Sequence of UniProt P24534 (whole entry, looked up): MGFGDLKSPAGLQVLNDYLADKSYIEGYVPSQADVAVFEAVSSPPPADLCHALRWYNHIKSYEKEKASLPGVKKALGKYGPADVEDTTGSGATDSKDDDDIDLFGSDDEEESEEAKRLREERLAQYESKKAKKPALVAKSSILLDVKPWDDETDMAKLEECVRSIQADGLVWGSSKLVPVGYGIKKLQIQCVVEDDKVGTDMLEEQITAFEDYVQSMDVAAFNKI
Sequence of UniProt P54292 (whole entry, looked up): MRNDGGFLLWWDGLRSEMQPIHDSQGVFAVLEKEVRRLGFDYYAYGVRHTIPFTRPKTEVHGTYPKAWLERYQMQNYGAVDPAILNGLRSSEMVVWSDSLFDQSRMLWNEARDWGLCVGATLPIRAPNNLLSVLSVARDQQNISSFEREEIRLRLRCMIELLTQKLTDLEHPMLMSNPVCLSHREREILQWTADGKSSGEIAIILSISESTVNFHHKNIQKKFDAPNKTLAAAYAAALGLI
Sequence of UniProt P00519 (whole entry, unmodified, looked up): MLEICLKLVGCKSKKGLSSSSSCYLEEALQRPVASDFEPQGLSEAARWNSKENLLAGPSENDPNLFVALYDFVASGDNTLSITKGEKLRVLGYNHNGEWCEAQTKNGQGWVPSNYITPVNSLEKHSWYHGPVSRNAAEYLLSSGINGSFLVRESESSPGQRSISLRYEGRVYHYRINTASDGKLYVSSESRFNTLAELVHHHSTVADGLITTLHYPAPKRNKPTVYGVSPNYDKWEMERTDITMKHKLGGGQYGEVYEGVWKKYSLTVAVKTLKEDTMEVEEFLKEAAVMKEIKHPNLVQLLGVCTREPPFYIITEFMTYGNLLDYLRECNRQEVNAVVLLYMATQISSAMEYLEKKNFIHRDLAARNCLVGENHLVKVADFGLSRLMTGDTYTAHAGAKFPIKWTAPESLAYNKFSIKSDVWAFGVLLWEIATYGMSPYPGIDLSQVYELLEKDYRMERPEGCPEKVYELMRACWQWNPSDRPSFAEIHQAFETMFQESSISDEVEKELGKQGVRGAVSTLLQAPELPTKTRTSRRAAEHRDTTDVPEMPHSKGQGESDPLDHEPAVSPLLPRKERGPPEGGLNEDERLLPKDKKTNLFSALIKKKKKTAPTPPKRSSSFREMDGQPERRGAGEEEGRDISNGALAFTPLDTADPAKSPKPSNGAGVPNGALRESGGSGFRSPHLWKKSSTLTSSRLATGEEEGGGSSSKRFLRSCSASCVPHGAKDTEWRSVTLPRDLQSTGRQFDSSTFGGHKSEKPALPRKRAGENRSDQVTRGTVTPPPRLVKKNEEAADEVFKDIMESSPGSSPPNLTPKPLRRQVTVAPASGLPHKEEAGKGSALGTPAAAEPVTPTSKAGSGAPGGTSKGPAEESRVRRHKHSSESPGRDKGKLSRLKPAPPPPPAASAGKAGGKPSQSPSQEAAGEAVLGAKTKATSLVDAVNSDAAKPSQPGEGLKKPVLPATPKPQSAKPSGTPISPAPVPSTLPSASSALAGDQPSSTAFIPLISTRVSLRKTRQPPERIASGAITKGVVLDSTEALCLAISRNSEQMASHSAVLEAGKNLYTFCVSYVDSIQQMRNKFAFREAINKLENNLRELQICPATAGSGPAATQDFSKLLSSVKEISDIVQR
Sequence of UniProt Q99683 (whole entry, looked up): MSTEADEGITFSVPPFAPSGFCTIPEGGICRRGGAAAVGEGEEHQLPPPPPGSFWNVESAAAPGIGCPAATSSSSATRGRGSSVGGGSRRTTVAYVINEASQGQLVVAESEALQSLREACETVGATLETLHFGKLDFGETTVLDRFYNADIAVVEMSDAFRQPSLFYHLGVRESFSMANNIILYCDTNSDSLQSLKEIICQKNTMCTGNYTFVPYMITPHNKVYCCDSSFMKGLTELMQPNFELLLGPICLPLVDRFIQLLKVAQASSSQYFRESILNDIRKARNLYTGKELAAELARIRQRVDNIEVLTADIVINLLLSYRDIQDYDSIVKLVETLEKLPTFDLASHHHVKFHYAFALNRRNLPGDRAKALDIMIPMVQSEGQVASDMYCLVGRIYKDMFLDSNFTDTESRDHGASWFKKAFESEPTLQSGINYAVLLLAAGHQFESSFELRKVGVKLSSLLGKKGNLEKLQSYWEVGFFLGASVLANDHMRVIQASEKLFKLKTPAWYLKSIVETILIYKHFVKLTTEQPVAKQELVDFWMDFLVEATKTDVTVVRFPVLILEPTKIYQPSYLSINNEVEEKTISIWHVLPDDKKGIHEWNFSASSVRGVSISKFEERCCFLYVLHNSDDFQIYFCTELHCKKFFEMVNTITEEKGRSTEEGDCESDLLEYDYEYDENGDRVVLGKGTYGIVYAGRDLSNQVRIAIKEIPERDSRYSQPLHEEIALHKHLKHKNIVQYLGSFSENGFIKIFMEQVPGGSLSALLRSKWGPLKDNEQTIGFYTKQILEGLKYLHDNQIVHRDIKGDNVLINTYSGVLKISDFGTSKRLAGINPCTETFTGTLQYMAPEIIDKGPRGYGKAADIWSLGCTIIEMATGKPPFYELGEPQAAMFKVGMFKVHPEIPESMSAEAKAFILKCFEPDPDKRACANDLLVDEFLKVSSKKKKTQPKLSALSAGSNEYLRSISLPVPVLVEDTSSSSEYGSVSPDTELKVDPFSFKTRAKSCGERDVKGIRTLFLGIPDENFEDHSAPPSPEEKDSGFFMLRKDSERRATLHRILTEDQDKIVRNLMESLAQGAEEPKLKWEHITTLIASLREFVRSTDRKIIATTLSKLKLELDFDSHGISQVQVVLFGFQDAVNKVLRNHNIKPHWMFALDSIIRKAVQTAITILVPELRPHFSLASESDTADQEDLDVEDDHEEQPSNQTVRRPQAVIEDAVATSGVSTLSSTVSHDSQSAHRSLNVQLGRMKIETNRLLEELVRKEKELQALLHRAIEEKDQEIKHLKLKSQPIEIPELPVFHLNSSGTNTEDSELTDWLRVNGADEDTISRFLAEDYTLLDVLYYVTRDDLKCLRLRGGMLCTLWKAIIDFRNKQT
Sequence of UniProt Q62351 (whole entry, looked up): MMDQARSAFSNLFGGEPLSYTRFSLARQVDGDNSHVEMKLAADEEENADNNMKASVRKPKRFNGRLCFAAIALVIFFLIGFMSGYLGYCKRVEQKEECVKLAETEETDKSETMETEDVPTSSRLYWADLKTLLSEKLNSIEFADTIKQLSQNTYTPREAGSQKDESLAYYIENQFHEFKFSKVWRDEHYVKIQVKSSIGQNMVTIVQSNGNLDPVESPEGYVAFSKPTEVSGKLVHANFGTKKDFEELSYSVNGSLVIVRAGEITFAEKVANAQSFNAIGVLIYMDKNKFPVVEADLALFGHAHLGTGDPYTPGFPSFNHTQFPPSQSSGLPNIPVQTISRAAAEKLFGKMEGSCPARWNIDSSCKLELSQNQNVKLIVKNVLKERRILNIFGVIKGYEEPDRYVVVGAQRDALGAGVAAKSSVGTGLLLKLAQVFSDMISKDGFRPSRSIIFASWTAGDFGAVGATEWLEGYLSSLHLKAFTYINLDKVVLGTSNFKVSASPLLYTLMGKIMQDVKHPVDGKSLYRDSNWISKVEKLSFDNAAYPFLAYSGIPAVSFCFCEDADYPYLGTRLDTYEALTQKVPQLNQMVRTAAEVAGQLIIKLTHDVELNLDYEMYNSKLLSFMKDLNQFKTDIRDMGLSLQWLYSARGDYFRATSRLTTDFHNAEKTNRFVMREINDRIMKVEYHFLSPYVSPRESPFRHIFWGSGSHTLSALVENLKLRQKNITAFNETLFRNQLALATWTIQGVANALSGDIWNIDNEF
Sequence of UniProt P39051 (whole entry, looked up): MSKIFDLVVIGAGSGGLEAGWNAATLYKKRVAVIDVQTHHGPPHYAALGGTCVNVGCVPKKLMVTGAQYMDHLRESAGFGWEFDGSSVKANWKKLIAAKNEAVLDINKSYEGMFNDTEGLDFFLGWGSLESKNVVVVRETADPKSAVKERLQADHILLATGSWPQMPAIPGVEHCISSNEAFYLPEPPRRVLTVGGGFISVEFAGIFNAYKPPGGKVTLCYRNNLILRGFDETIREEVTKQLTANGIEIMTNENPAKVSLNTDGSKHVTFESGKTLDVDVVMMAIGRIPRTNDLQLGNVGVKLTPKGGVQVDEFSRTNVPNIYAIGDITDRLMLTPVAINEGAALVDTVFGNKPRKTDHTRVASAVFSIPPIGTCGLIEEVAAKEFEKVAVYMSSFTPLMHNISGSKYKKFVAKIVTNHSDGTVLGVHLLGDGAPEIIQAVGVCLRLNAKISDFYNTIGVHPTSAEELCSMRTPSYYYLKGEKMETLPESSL
Sequence of UniProt Q01105 (whole entry, looked up): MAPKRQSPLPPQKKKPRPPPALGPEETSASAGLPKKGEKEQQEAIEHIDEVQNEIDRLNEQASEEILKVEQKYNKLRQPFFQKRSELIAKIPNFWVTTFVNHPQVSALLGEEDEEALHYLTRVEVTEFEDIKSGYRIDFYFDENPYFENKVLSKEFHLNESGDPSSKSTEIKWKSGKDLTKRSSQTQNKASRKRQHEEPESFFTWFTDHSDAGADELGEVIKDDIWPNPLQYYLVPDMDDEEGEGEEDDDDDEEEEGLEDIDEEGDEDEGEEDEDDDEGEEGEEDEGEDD
Sequence of UniProt P00698 (whole entry, looked up): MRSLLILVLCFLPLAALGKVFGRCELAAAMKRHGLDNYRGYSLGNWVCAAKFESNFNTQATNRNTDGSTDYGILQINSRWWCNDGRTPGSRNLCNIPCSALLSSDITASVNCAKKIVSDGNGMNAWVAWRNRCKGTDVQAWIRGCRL

SMILES | target or system | test | test system | setting | scale | quantity | value
CC[C@@H](C)[C@@H](NC(=O)[C@@H](Cc1ccc(O)cc1)NC(=O)[C@H]1CCCN1C(=O)[C@@H](CCCNC(=N)N)NC(=O)[C@H](N)Cc1c[nH]cn1)C(=O)N[C@H](C)C(=O)N[C@H](Cc1c[nH]cn1)C(=O)N[C@H](CCCNC(=N)N)C(=O)N[C@@H](C(=O)N[C@H](Cc1ccc(O)cc1)C(=O)N[C@H](CO)C(=O)N[C@H](Cc1ccccc1)C(N)=O)C(C)C | Transferrin receptor protein 1 (Tfrc, Mus musculus, UniProt Q62351) | flow cytometry | RAW264.7 | 24 h, pH 6, replicate 2, unit not given | reference: 0 h | surface TFRC expression | 0.986
[Cl-].[K+] | GUK1 (Homo sapiens, UniProt Q16774) | enzyme activity, 1H NMR |  |  |  | equilibrium GDP/GMP ratio | 0.0874 and 0.202 and 0.211
C=CC(=O)N1CCC(COCC(=O)N2CCN(c3nc(-c4cnc(N)nc4C(F)F)nc(N4CCOC[C@@H]4C)n3)CC2)CC1 | MAP3K5 (Homo sapiens, UniProt Q99683) | KINOMEscan |  | 1 µM |  | remaining binding | 97%
Cn1cc(-c2ccc(-c3cncc(Cl)c3N3CCC4(CCNC4=O)CC3)cc2)cn1 | COLO 205 | microarray, refers to: MMP2 |  | concentration not given, 6 h, gene set MMP-2 | reference: untreated cells | fold change in expression | 1.71
O=C1CCC(N2C(=O)c3cccc(NCC(=O)OCCCCc4cn(CCCCCCN5CCc6c(c7ccccc7n6Cc6ccc(C(=O)NO)cc6)C5)nn4)c3C2=O)C(=O)N1 (stereo not shown) | HDAC6 (Homo sapiens, UniProt Q9UBN7) | degrader, western blot | MM1.S | 1 µM, 24 h |  | degradation | 68%
N[C@@H](CO)C(=O)O | Lysozyme C (LYZ, Gallus gallus, UniProt P00698) | binding, sedimentation equilibrium AUC |  |  |  | association constant | 1.55 ± 0.31 M⁻¹
Cc1cccc(N2CC(C(=O)O)CC2=O)c1 (stereo not shown) | Huntingtin (HTT, Homo sapiens, UniProt P42858) | binding, affinity selection mass spectrometry |  |  | reference: other proteins in batch | fold enrichment | 0.674
OC[C@H]1OC(O)[C@H](O)[C@@H](O)[C@@H]1O (stereo partly shown) | Hexokinase-3 (HK3, Homo sapiens, UniProt P52790) | enzyme activity, coupled G6PDH |  | substrate inhibition fit, with: ATP 20 mM |  | kcat | 46 ± 15 s⁻¹
C=CC(=O)N1CCC[C@@H](n2nc(-c3ccc(Oc4ccccc4)cc3)c3c(N)ncnc32)C1 | Elongation factor 1-beta (Homo sapiens, UniProt P24534) |  |  | 10 µM |  | remaining activity | 19.4%
Cc1cccc2c1ccc1cc(C(C)C)ccc12 | Aryl hydrocarbon receptor (Danio rerio, UniProt Q9YGV3) | reporter gene, agonist, luciferase reporter | ZF-4 | 10000 µM | reference: vehicle control | fold change | 0.765
Cc1ncsc1-c1ccc(CNC(=O)[C@@H]2C[C@@H](O)CN2C(=O)[C@@H](NC(=O)C2(F)CC2)C(C)(C)C)c(OCCOCCOCCN2CCN(c3cc(-c4ccccc4O)nnc3N)CC2)c1 | VHL-ElonginB-ElonginC complex human | ternary complex formation, fluorescence polarization |  | with: SMARCA4 bromodomain |  | cooperativity factor | 14
CNC[C@H](O)c1cccc(O)c1 | Alpha-1D adrenergic receptor, Δ1-79 (ADRA1D, Homo sapiens, UniProt P25100) | calcium mobilisation, agonist | COS-7 transfected |  | reference: 3 µM ionomycin | Emax | ~25%
COc1ccnn2ncc(-c3ccnc(N(C)C)n3)c12 | ABL1 (Homo sapiens, UniProt P00519, Q252H) | KINOMEscan |  | 1 µM | reference: control | remaining binding | 85%
CCCCCCCCCCCCC/C=C/[C@@H](O)[C@H](CO)NC(=O)CCCCCCCCCCCCCCCCCCCCC | Protein SET (SET, Homo sapiens, UniProt Q01105) | lipid binding, GFP pull-down LC-MS/MS | A549 overexpressing GFP-tagged protein |  | reference: eluate plus flow-through | lipid fraction bound | 8.3%
CC1=Nc2ccc(Cl)cc2C(c2ccc(C)cc2)N1CCCN(C)C (stereo not shown) | TPR (Trypanosoma brucei brucei, UniProt P39051) | enzyme activity, mixed inhibitor, DTNB-coupled kinetic |  | enzyme-substrate complex |  | Ki′ | 1.5 µM
COc1cccc(C(=O)C#Cc2ccc(F)c(F)c2)c1 | rhlR (Pseudomonas aeruginosa, UniProt P54292) | receptor binding |  | concentration not given, 1.5 h, with: BHL at 1:1 ratio | reference: control | binding | 55%

A few entries again:
SMILES | target or system | test | test system | setting | scale | quantity | value
Cc1ncsc1-c1ccc(CNC(=O)[C@@H]2C[C@@H](O)CN2C(=O)[C@@H](NC(=O)C2(F)CC2)C(C)(C)C)c(OCCOCCOCCN2CCN(c3cc(-c4ccccc4O)nnc3N)CC2)c1 | VHL-ElonginB-ElonginC complex human | ternary complex formation, fluorescence polarization |  | with: SMARCA4 bromodomain |  | cooperativity factor | 14
Cc1cccc(N2CC(C(=O)O)CC2=O)c1 (stereo not shown) | Huntingtin (HTT, Homo sapiens, UniProt P42858) | binding, affinity selection mass spectrometry |  |  | reference: other proteins in batch | fold enrichment | 0.674
